Results pooled from the literature.
Protocols differ between the studies behind these lines.
U2AF2: U2AF2 148-342 (Homo sapiens, UniProt P26368)
UniProt P26368, sequence (whole entry, looked up): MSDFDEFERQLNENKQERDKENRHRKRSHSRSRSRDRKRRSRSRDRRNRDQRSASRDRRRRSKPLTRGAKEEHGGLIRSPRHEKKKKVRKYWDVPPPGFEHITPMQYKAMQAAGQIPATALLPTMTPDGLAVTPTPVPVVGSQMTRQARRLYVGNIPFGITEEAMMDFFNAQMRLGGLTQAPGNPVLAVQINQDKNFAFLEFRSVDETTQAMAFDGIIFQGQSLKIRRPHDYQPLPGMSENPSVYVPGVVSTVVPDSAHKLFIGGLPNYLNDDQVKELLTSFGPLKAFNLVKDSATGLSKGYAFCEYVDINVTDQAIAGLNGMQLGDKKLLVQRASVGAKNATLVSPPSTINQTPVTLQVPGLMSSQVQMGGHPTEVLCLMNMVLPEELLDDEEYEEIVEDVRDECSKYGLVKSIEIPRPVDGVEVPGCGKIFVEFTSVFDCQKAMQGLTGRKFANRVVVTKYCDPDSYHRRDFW
B1: ZBTB5 1-124 (Homo sapiens, UniProt O15062); sequence looked up; chain MDFPGHFEQIFQQLNYQRLHGQLCDCVIVVGNRHFKAHRSVLAACSTHFRALFSVAEGDQTMNMIQLDSEVVTAEAFAALIDMMYTSTLMLGESNVMDVLLAASHLHLNSVVKACKHYLTTRTL
B2: cdc15 19-312 D255A/E256A/E259A (Schizosaccharomyces pombe, UniProt Q09822); sequence looked up; chain SVKFRDNFWGSEDAGMDALMSRTKSSLSVLESIDEFYAKRASIEREYASKLQELAASSADIPEVGSTLNNILSMRTETGSMAKAHEEVSQQINTELRNKIREYIDQTEQQKVVAANAIEELYQKKTALEIDLSEKKDAYEYSCNKLNSYMRQTKKMTGRELDKYNLKIRQAALAVKKMDAEYRETNELLLTVTREWIDRWTEVCDAFQHIEEYRLEFLKTNMWAYANIISTACVKDAASCAKIRLTLENTNIDEDITQMIQNEGTGTTIPPLPEFNDYFKENGLNYDIDQLISK
B3: IL2 mature Y45A (Bos taurus, UniProt P05016); sequence looked up; chain APTSSSTGNTMKEVKSLLLDLQLLLEKVKNPENLKLSRMHTFDFAVPKVNATELKHLKCLLEELKLLEEVLNLAPSKNLNPREIKDSMDNIKRIVLELQGSETRFTCEYDDATVNAVEFLNKWITFCQSIYSTMT
B4: SPOP W131L (Homo sapiens, UniProt O43791); sequence looked up; chain MSRVPSPPPPAEMSSGPVAESWCYTQIKVVKFSYMWTINNFSFCREEMGEVIKSSTFSSGANDKLKWCLRVNPKGLDEESKDYLSLYLLLVSCPKSEVRAKFKFSILNAKGEETKAMESQRAYRFVQGKDLGFKKFIRRDFLLDEANGLLPDDKLTLFCEVSVVQDSVNISGQNTMNMVKVPECRLADELGGLWENSRFTDCCLCVAGQEFQAHKAILAARSPVFSAMFEHEMEESKKNRVEINDVEPEVFKEMMCFIYTGKAPNLDKMADDLLAAADKYALERLKVMCEDALCSNLSVENAAEILILADLHSADQLKTQAVDFINYHASDVLETSGWKSMVVSHPHLVAEAYRSLASAQCPFLGPPRKRLKQS
B5: BTK 1-171 (Homo sapiens, UniProt Q06187); sequence looked up; chain MAAVILESIFLKRSQQKKKTSPLNFKKRLFLLTVHKLSYYEYDFERGRRGSKKGSIDVEKITCVETVVPEKNPPPERQIPRRGEESSEMEQISIIERFPYPFQVVYDEGPLYVFSPTEELRKRWIHQLKNVIRYNSDLVQKYHPCFWIDGQYLCCSQTAKNAMGCQILENR
B6: ph-p SAM 1397-1577 D33K/D34R (Drosophila melanogaster, UniProt P39769); sequence looked up; chain GVGSGETNGLGTGGIVGVDAMALVDRLDEAMAEEKMQTEATPKLSESFPILGASTEVPPMSLPVQAAISAPSPLAMPLGSPLSVALPTLAPLSVVTSGAAPKSSEVNGTDRPPISSWSVDDVSNFIRELPGCQDYVKRFIQQEIDGQALLLLKEKHLVNAMGMKLGPALKIVAKVESIKEV
B7: SCNN1G 1-649 (Homo sapiens, UniProt P51170); chain MAPGEKIKAKIKKNLPVTGPQAPTIKELMRWYCLNTNTHGCRRIVVSRGRLRRLLWIGFTLTAVALILWQCALLVFSFYTVSVSIKVHFRKLDFPAVTICNINPYKYSTVRHLLADLEQETREALKSLYGFPESRKRREAESWNSVSEGKQPRFSHRIPLLIFDQDEKGKARDFFTGRKRKVGGSIIHKASNVMHIESKQVVGFQLCSNDTSDCATYTFSSGINAIQEWYKLHYMNIMAQVPLEKKINMSYSAEELLVTCFFDGVSCDARNFTLFHHPMHGNCYTFNNRENETILSTSMGGSEYGLQVILYINEEEYNPFLVSSTGAKVIIHRQDEYPFVEDVGTEIETAMVTSIGMHLTESFKLSEPYSQCTEDGSDVPIRNIYNAAYSLQICLHSCFQTKMVEKCGCAQYSQPLPPAANYCNYQQHPNWMYCYYQLHRAFVQEELGCQSVCKEACSFKEWTLTTSLAQWPSVVSEKWLLPVLTWDQGRQVNKKLNKTDLAKLLIFYKDLNQRSIMESPANSIEMLLSNFGGQLGLWMSCSVVCVIEIIEVFFIDFFSIIARRQWQKAKEWWAWKQAPPCPEAPRSPQGQDNPALDIDDDLPTFNSALHLPPALGTQVPGTPPPKYNTLRLERAFSNQLTDTQMLDEL
UniProt Q88VS2, sequence (whole entry, looked up): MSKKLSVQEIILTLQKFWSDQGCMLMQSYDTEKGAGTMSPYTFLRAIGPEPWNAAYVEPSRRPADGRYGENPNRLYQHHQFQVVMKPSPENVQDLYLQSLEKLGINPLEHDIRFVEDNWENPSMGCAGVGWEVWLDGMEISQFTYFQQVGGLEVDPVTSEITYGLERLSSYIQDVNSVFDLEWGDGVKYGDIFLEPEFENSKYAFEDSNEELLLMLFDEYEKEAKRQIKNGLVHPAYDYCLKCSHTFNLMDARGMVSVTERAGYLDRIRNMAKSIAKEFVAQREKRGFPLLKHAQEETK
UniProt Q08345, sequence (whole entry, unmodified, looked up): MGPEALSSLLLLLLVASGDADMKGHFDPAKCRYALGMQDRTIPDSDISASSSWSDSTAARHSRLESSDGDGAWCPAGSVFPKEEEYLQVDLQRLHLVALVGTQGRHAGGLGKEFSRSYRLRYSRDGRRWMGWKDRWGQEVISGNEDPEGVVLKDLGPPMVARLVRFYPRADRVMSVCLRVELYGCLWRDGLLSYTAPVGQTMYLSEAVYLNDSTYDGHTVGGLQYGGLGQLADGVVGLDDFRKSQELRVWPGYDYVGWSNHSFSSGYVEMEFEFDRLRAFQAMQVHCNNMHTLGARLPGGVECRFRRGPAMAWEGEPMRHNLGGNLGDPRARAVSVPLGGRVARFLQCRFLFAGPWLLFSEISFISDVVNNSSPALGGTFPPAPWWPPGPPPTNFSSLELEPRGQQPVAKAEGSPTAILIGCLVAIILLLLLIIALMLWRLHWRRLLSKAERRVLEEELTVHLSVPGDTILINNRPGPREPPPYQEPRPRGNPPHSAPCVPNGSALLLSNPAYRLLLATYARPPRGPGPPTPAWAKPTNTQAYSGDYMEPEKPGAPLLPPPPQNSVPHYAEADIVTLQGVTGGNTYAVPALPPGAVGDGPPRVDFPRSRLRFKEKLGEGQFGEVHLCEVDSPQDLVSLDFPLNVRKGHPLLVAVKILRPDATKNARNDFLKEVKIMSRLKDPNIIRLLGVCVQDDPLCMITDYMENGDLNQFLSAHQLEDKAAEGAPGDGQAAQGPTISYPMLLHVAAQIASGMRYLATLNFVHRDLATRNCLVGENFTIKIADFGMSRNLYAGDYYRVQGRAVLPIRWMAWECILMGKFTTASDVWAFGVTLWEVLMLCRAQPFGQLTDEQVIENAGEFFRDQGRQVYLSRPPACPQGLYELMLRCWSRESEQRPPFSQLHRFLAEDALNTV

glyQ (Lactobacillus plantarum, UniProt Q88VS2)
binding (itself; crystal structure): binds

B1 (ZBTB5 1-124)
binding (itself; negative-stain electron microscopy): binds

Tropomyosin beta chain (human)
log2 fold change (PP6C (human); co-immunoprecipitation, IP-MS; CYB5R4 knockout cells; concentration not given; baseline: CYB5R4 knockout over parental): 0.72

B2 (cdc15 19-312 D255A/E256A/E259A)
binding (itself; negative stain electron microscopy): binds

B3 (IL2 mature Y45A)
binding (itself; SDS-PAGE): binds

YGQASQSYSGYGQTT (TAF15 28-42 (Homo sapiens, UniProt Q92804); N-acetyl/C-amide; sequence looked up)
binding (itself; ThT fluorescence; peptide; peptide fibrils): binds

B4 (SPOP W131L)
binding (itself; negative-stain TEM): binds

GUUCUGUGU (ssRNA)
Kd (U2AF2; sequencing of bound RNA; RNA; motif only): 5.6 µM

B5 (BTK 1-171)
binding (itself; FCS; supported lipid bilayers; together with: PIP3): binds

B6 (ph-p SAM 1397-1577 D33K/D34R)
binding (itself; AUC): binds

B7 (SCNN1G 1-649)
binding (itself; cryo-EM): binds

GSPTAILIGSLVAIILLLLLIIALVLWRLHWRR (DDR1 413-445 C422S/M437V (Homo sapiens, UniProt Q08345); sequence looked up)
binding (itself; SDS-PAGE): binds

CUUCUCUCU (ssRNA)
Kd (U2AF2; sequencing of bound RNA; RNA; motif only): 0.3 µM

For quick reference, copied from above:
B1 (ZBTB5 1-124)
binding (itself; negative-stain electron microscopy): binds
